Experimental data of several laboratories.
Compare with care: the assays were run in different laboratories. “And” joins repeats or separate records; there may be more than shown. Numbers after ± are the reported error.
Organism: Plasmodium falciparum

Compound | test | test system | conditions | IC50
N[C@@H](CCC(=O)N[C@@H](CCC(=O)N(O)c1ccc(Br)cc1)C(=O)NCC(=O)O)C(=O)O | blood-stage growth, Giemsa-stained smears | 3D7 | 48 h, asynchronous culture | 70000 nM
CN(C(=O)c1ccn2ncc(-c3ccc(C(N)=O)cc3)c2c1)C1CCC(C#N)CC1 (stereo not shown) | parasite growth | 3D7 | – | 1430 nM
COc1ccc2c(c1)C1CC(C)(N2)c2c(C)nc3ccc(OC)cc3c21 (stereo not shown) | parasite growth, SYBR Green | – | blood stage | 2460 nM
COc1cc(O)c(-c2cc(-c3cc(-c4c(O)cc5c(c4OC)[C@H](C)N[C@H](C)C5)c4cc(C)cc(OC)c4c3O)c(O)c3c(OC)cc(C)cc23)c2c1[C@H](C)N[C@H](C)C2 | parasite growth, SYBR Green | NF54 | 96 h, blood stage | 63 nM
COC(=O)[C@@H]1Cc2c([nH]c3ccccc23)[C@@H](c2cccs2)N1 | parasite growth | 3D7 | 48 h, blood stage | 4.5 µg/mL
CCOC1C(C)C2C(C=CC3C(C)C=CC=CC(C)OC(=O)C(C)C(=O)C(Cl)(Cl)C(=O)C32)CC1(C)O (stereo not shown) | parasite growth, ELISA | 3D7 | blood stage | > 11000 nM
CCCCCCCCCC1CC2CCCC3CC(CCCCCCCCC)NC(=N1)N23 (stereo not shown) | parasite growth, plasmodial LDH | D6 chloroquine-sensitive | – | 1390 nM
N#Cc1c(-c2cccs2)[n+]([O-])c2ccc(Cl)cc2[n+]1[O-] | parasite growth, [3H]hypoxanthine incorporation | 3D7 chloroquine-sensitive | – | inactive
CCC1=CC(c2ccc[nH]2)=NC1=CNC1CCCCCC1 | parasite growth, SYBR Green I fluorescence | D6, chloroquine-sensitive | – | > 250 nM
COc1cc(O)c(-c2ccc(OC)c3c(O)cc(C)c(-c4cc(-c5c(O)cc(OC)c6c5C[C@@H](C)N[C@@H]6C)c5cc(C)cc(OC)c5c4O)c23)c2c1[C@@H](C)N(C)[C@H](C)C2 | parasite growth | NF54 | blood stage | 66 nM
CC(=NNC(=S)NN=C(C(=NO)c1ccccc1)c1ccccc1)c1ccccc1 | parasite growth, SYBR Green | 3D7 | 72 h, blood stage | 3070 nM
COC1=CC(c2ccc[nH]2)=NC1=CNC1CCCCCCC1 | parasite growth, SYBR Green I fluorescence | D6, chloroquine-sensitive | – | 4.8 nM
COc1ccc(-c2cccc3ccccc23)c2c1C=NC(C)(C)C2 | parasite growth, SYBR Green | NF54 | 96 h, blood stage | 14500 nM
COc1cc2c(NC3CCN(C)CC3)nc(N3CCCN(C)CC3)nc2cc1OCc1ccccc1 | parasite growth, SYBR Green I | 3D7 | 3 days | 42.7 nM
CCCCCCN=Cc1[nH]c(-c2ccc[nH]2)cc1OC | parasite growth, SYBR Green I fluorescence | D6, chloroquine-sensitive | – | 34 nM
CCCCN1C(=O)c2ccc3c4c(ccc(c24)C1=O)C(=O)N(CCNc1c2ccc(Cl)cc2nc2ccc(OC)cc12)C3=O | parasite growth, SYBR Green | 3D7 | 72 h, blood stage | < 5 nM and 3.65 nM
CC1=N[C@H](C)Cc2c(-c3ccccc3)ccc(O)c21 | parasite growth, SYBR Green | NF54 | 96 h, blood stage | 5090 nM
Clc1ccc2c(NCCCN3CCN(c4ccnc(N5CCCC5)n4)CC3)ccnc2c1 | parasite growth | D6 | 72 h, blood stage | 15 nM
CC[C@H](C)[C@@H]1NC(=O)[C@H](CCCCN)NC(=O)[C@H](CCCCN)NC(=O)[C@H](Cc2ccc(O)cc2)NC(=O)[C@H](CC(C)C)NC(=O)[C@@H]2CCCN2C(=O)CNC(=O)CNC(=O)[C@@H](NC(=O)CN)CSSC[C@@H](C(=O)N[C@@H](CCC(=O)O)C(=O)N[C@@H](CO)C(N)=O)NC(=O)[C@H](CC(C)C)NC(=O)[C@H](CCCCN)NC(=O)[C@H](CCCCN)NC(=O)[C@H]([C@@H](C)CC)NC(=O)[C@H]([C@@H](C)CC)NC(=O)[C@H](CCCCN)NC(=O)[C@H](CCCCN)NC(=O)[C@H](Cc2ccc(O)cc2)NC(=O)[C@H](CC(C)C)NC(=O)[C@@H]2CCCN2C(=O)[C@H](C)NC(=O)CNC(=O)CNC(=O)[C@H](CO)NC(=O)CNC(=O)CNC(=O)[C@H](CO)NC(=O)[C@H](CCC(=O)O)NC(=O)[C@H](CC(C)C)NC(=O)[C@H](CC(C)C)NC(=O)[C@H](CCCCN)NC(=O)[C@H](CCCCN)NC(=O)[C@H]([C@@H](C)CC)NC1=O | parasite growth | 3D7 | 72 h, 5% serum plus Albumax II | 11900 ± 900 nM
N#Cc1c(-c2cccs2)[n+]([O-])c2ccc(F)cc2[n+]1[O-] | parasite growth, [3H]hypoxanthine incorporation | 3D7 chloroquine-sensitive | – | > 10000 nM
CC[C@@H](C)[C@@H]1NC(=O)[C@@H](Cc2ccccc2)NC(=O)[C@@H]2CCCN2C(=O)[C@H]([C@H](C)CC)NC(=O)[C@@H](Cc2ccccc2)NC(=O)[C@@H]2CCCN2C1=O | – | 3D7 | – | 2000 nM
CC1C=CC=CC(C)C2C=CC3CC(C)(O)C(Br)C(C)C3C2C(=O)C(Cl)(Cl)C(=O)C(C)C(=O)O1 (stereo not shown) | parasite growth, ELISA | 3D7 | blood stage | 25 nM
CC(=O)O[C@@H]1C[C@H]2C(C)(C)C(=O)C=C[C@]2(C)[C@H]2CC[C@]3(C)C(=CC[C@H]3C3=CC(O)OC3=O)[C@@]21C (stereo partly shown) | cell growth | D6 and W2 | – | < 2400 nM
CNC(=O)CNc1cnc2ccc(-c3ccc(OC)c(OC)c3)cc2n1 | parasite growth | 3D7 | – | 118 ± 55 nM
O=C(C1CCN(c2nnnn2-c2ccc(Cl)cc2)CC1)N1CCCc2ccccc21 | parasite growth, SYBR Green | 3D7 | 72 h, blood stage | 2000 nM
CNC(=O)CNc1cnc2ccc(-c3ccc(OC)c(OC)c3)cc2n1 | parasite growth, SYBR Green | – | blood stage | ~71 nM
O=c1c(NCCCN(Cc2ccc(F)cc2)c2ccccn2)c(NCc2cccnc2)c1=O | parasite growth, flow cytometry | 3D7 | 72 h | 16.1 ± 5.87 nM
N[C@@H](CCC(=O)N[C@@H](CCC(=O)N(O)c1ccc(Br)cc1)C(=O)NCC(=O)OC1CCCC1)C(=O)OC1CCCC1 | parasite growth, imaging | 3D7 | 48 h, blood stage | 30000 nM

Compound | test | test system | conditions | IC50
CC1=CC(=CNC2CCCCCCC2)N=C1c1ccc[nH]1 | parasite growth, SYBR Green I fluorescence | D6, chloroquine-sensitive | – | 1380 nM
CC(C)=CCC/C(C)=C/Cc1c(CCC(=O)c2ccc(O)cc2O)ccc(O)c1O | parasite growth | 3D7 | blood stage | 10400 nM
COC1=CC(c2ccc[nH]2)=NC12O[C@@H](C)C[C@@H]1CCCCC(=O)CCc3ccc([nH]3)[C@H]12 (stereo partly shown) | parasite growth | D6 | blood stage | 138 nM
O=C1c2ccc3c4c(ccc(c24)C(=O)N1CCCn1ccnc1)C(=O)N(CCCn1ccnc1)C3=O | parasite growth, SYBR Green | 3D7 | 72 h, blood stage | 260 nM
N[C@@H](CNC(=O)N[C@@H](CCC(=O)N(O)c1ccc(Br)cc1)C(=O)NCC(=O)O)C(=O)O | blood-stage growth, Giemsa-stained smears | 3D7 | 48 h, asynchronous culture | 90000 nM
COc1ccc2c(=O)c3cc(OS(=O)(=O)C(F)(F)F)ccc3[nH]c2c1 | parasite growth, SYBR Green | D6 | blood stage | 57.7 nM
S=C(Nc1ccccc1)c1cccc(C(=S)Nc2ccccc2)n1 | parasite growth, SYBR Green | 3D7 | 96 h, blood stage | 142 nM
COC1=CC(c2ccc[nH]2)=NC1=CNC12CC3CC(CC(C3)C1)C2 | parasite growth, SYBR Green I fluorescence | D6, chloroquine-sensitive | – | 3.1 nM
N#Cc1ccc(-n2nnnc2N2CCC(C(=O)N3CCCc4ccccc43)CC2)cc1 | parasite growth, SYBR Green | 3D7 | 72 h, blood stage | 3200 nM
CC1=C[C@@H](C)[C@H]2[C@@H]3C(=O)C(Cl)(Cl)C(=O)[C@H](C)C(=O)O[C@@H](C)/C=C/C=C\[C@@H](C)[C@@H]3C=C[C@@H]2C1 | parasite growth, ELISA | 3D7 | blood stage | 14 nM
N#Cc1c(-c2ccco2)[n+]([O-])c2ccc(C(F)(F)F)cc2[n+]1[O-] | parasite growth, [3H]hypoxanthine incorporation | 3D7 chloroquine-sensitive | – | 530 ± 250 nM
c1ccc(CCCNc2ncnc3cc(OCC4CCN(CCNc5cccc6ccccc56)CC4)ccc23)cc1 | parasite growth | NF54 | blood stage | 392 nM
Clc1ccc2c(c1)nc(N1CCNCC1)n2CC1CCCCC1 | parasite growth | NF54 | blood stage | 7880 nM
CC(C)(C)OC(=O)CNC(=O)[C@H](CCC(=O)N(O)c1ccc(Br)cc1)NC(=O)CC[C@H](N)C(=O)OC(C)(C)C | parasite growth, imaging | 3D7 | 48 h, blood stage | 35000 nM
CCOc1cccc(C(=O)Nc2ccc(-c3nc4ccccc4[nH]3)cc2)c1 | parasite growth | NF54 | 72 h, blood stage | 1760 nM
CCNCC#CCNc1ccnc2cc(Cl)ccc12 | parasite growth | DD2 | blood stage | 91 nM
O=C(C1CCN(c2nnnn2-c2ccccc2)CC1)N1CCCc2ccccc21 | parasite growth | – | 72 h, gametocyte | 2000 nM
C1=CC(c2ccc[nH]2)=NC1=CNC12CC3CC(CC(C3)C1)C2 | parasite growth, SYBR Green I fluorescence | D6, chloroquine-sensitive | – | 341 nM
CC(C)(C)OC(=O)/C=C/c1ccc(O)c(C(=O)C(CCC(=O)OC(C)(C)C)CCC(=O)OC(C)(C)C)c1 | parasite growth, 3H-hypoxanthine incorporation | NF54 | – | 820 nM
COC(=O)[C@@H]1Cc2c([nH]c3ccccc23)[C@H](c2cccnc2)N1 | parasite growth | 3D7 | 48 h, blood stage | 4.82 µg/mL
COc1cc2nc(N3CCCN(C)CC3)nc(NC(C)C)c2cc1OC | parasite growth, SYBR Green I | 3D7 | 3 days | 322 nM
COc1ccc2c(c1)CCCN2C(=O)C1CCN(c2nnnn2-c2ccccc2)CC1 | parasite growth, SYBR Green | 3D7 | 72 h, blood stage | > 25000 nM
CCC1=CC(=CNC2CCCCCCC2)N=C1c1ccc[nH]1 | parasite growth, SYBR Green I fluorescence | D6, chloroquine-sensitive | – | 1280 nM
CC(C)CCOC1C(C)C2C(C=CC3C(C)C=CC=CC(C)OC(=O)C(C)C(=O)C(Cl)(Cl)C(=O)C32)CC1(C)O (stereo not shown) | parasite growth, ELISA | 3D7 | blood stage | > 11000 nM
C#Cc1cc(C(=O)C2=C(C)C(=O)c3ccccc3C2=O)ccc1C(F)(F)F | parasite growth, SYBR Green | Dd2 | 72 h, synchronized ring stage | 2990 ± 750 nM
COc1cccc2c(-c3ccc(O)c4c3CCN=C4)ccc(OC(C)C)c12 | parasite growth, SYBR Green | NF54 | 96 h, blood stage | 517 nM
COC1=CC(c2ccc[nH]2)=NC1=CNC1CCCCCC1 | parasite growth, SYBR Green I fluorescence | D6, chloroquine-sensitive | – | 23 nM

Excerpt of the above:
Compound | test | test system | conditions | IC50
CNC(=O)CNc1cnc2ccc(-c3ccc(OC)c(OC)c3)cc2n1 | parasite growth | 3D7 | – | 118 ± 55 nM
COc1ccc2c(=O)c3cc(OS(=O)(=O)C(F)(F)F)ccc3[nH]c2c1 | parasite growth, SYBR Green | D6 | blood stage | 57.7 nM
CCC1=CC(=CNC2CCCCCCC2)N=C1c1ccc[nH]1 | parasite growth, SYBR Green I fluorescence | D6, chloroquine-sensitive | – | 1280 nM
N#Cc1c(-c2cccs2)[n+]([O-])c2ccc(Cl)cc2[n+]1[O-] | parasite growth, [3H]hypoxanthine incorporation | 3D7 chloroquine-sensitive | – | inactive
